Experimental data pooled from the literature.
Compare with care: the assays were run in different laboratories. Values joined by “and” are separate records of one study, mostly repeats; a detail may differ. ± gives the spread as reported.

Structure (SMILES)	test	test system	conditions	scale	quantity	result
NCC(=O)Nc1cncc(-c2nn3c(=O)cc(N4CCNCC4)nc3s2)c1	ADP-induced platelet aggregation, light transmission aggregometry	human, stable CAD on aspirin, ex vivo platelets	subcutaneous, 0.04 mg/kg, 120 min post-dose, median value, together with: ADP 20 µM	–	inhibition	1.65%
C[C@H]1O[C@@H](O[C@H]2CC[C@@]3(C)[C@@H](CC[C@]4(C)[C@@H]3C=C[C@]35OC[C@@]6(CCC(C)(C)C[C@H]63)[C@@H](O)C[C@]54C)[C@]2(C)CO)[C@H](O)[C@@H](O[C@@H]2O[C@H](CO)[C@@H](O)[C@H](O)[C@H]2O)[C@H]1O	Western blot, measured: PPARα	chronic-plus-binge ethanol-fed mice, liver	dose not given, low dose, unit not given	reference: β-actin	protein level	0.664 and 1.05 and 1.2
C=CC(=O)Nc1cc(Nc2ncc(C(=O)OC(C)C)c(-c3cn(C)c4ccccc34)n2)c(OC)cc1N(C)CCN(C)C	–	EGFR-mutant NSCLC patients	dose not given	–	responders with duration ≥ 6 months	59%
CC1(C)CCC2(CC1)N[C@@H](C(=O)N[C@@H]1CC[C@@H](C(N)=O)OC1)[C@H](c1ccnc(Cl)c1F)[C@]21C(=O)Nc2cc(Cl)ccc21	–	human, solid tumours	60 mg/day, RECIST	reference: patients	stable disease	33.3%
CN(C(=O)n1cnc(-c2ccc[n+]([O-])c2)c1)C1CCCCC1	–	mice, formalin paw test	0.3 mg/kg, late phase, together with: anandamide 5 mg/kg i.p.	reference: vehicle, direction not given	change in licking score	-62%
COc1cc(O)c(CC=C(C)C)c(O)c1C(=O)/C=C/c1ccc(O)cc1	–	male Tac:SW mice, conventional and germ-free	in high-fat diet, dose not given, 10 weeks	reference: high-fat diet alone	final body weight	no effect
O=C(CCCCCCc1ccccc1)c1ncc(-c2ccccn2)o1	–	mouse, chronic constriction injury, contralateral paw	i.p., 30 mg/kg	–	cold allodynia	no effect
COc1ccc(C2NCCc3cc(O)c(O)cc32)cc1O (centres unmarked)	ferrozine	cell-free	100 µM, DMSO solvent	–	Fe2+ chelation	91.76 ± 0.34%
C[C@H]1C[C@H]2CSC(N)=N[C@@]2(c2nc(NC(=O)c3ccc(OC(F)F)cn3)cs2)CO1	measured: Aβx-40	healthy adults, plasma	160 mg single dose, 8 h post-dose	reference: placebo	percent change from baseline	-58.2%
CC(C)NCC(O)c1ccc(O)c(O)c1 (centres unmarked)	–	ventricular cardiomyocytes, C57BL/6 mouse	dose not given, 0.212 s	–	sarcomere length	1.5 µm
N#Cc1ccn2c(-c3ccncc3)c(-c3ccc(F)cc3)nc2c1	kinase binding, competitor, MIB/MS competition, measured: CDC7	Candida albicans cell lysate	1 µM	reference: DMSO	log2 fold change	0.313
N[C@H](C(=O)O)c1cc(O)cc(O)c1	field recording	rat hippocampal slice CA3	50 µM, 10 min	reference: baseline	population spike amplitude	126 ± 17.2%
N#Cc1ccc2c(c1)[C@H]1CCCN(C(=O)c3ccc4[nH]cnc4c3)[C@H]1C2	–	human, plasma	360 mg, day 15	–	1,5-anhydroglucitol	8.7 µg/mL
N#Cc1ccc2c(-c3ccncc3)c(-c3ccc(F)cc3)nn2c1	kinase binding, competitor, MIB/MS competition, measured: YPK1	Candida albicans cell lysate	10 µM	reference: DMSO	log2 fold change	-0.161
COc1ccccc1[C@H](Cn1c(=O)n(C(C)(C)C(=O)O)c(=O)c2c(C)c(-c3ncco3)sc21)OC1CCOCC1	[1-13C]acetate infusion, isotopomer analysis	overweight or obese healthy men, plasma VLDL-TG palmitate	oral, 20 mg single dose, 10 h post-dose, together with: oral fructose	–	fractional hepatic DNL	23 % new palmitate
O=C(O)CNC(=O)Cc1ccccc1	–	ventricular cardiomyocytes, C57BL/6 mouse	dose not given, 0.588 s	–	sarcomere length	1.65 µm
CC1(C)CCC(c2ccc(Cl)cc2)=C(CN2CCN(c3ccc(C(=O)NS(=O)(=O)c4ccc(N[C@H](CCN5CCOCC5)CSc5ccccc5)c(S(=O)(=O)C(F)(F)F)c4)cc3)CC2)C1	cell killing	canine blood CD3+ T cells, dog 32	24 h	–	EC50	0.147 µM
NC(=O)c1cnc2[nH]ccc2c1N[C@@H]1[C@@H]2CC3C[C@H]1C[C@@](O)(C3)C2	flow cytometry	Japanese healthy men, blood	oral, 30 mg twice daily, 72 h after day 7 dose	reference: baseline	total naive T-cell change	-1.3%
COc1ncc(-c2nc3c(n2C(C)C)[C@H](c2ccc(Cl)cc2)N(c2cc(Cl)cn(C)c2=O)C3=O)c(OC)n1	International Working Group criteria	human acute myeloid leukemia patients	dose not given, response TF, all patients	–	best overall response	63.7%
Cc1nn(-c2nc3c(F)cc(F)cc3s2)c(O)c1C(c1ccc(C(F)(F)F)cc1)c1c(C)nn(-c2nc3c(F)cc(F)cc3s2)c1O	measured: fat necrosis	mouse, cerulein-induced acute pancreatitis	25 mg/kg	direction not given	histology score	0
c1ccc(-c2n[nH]cc2-c2ccnc3ccccc23)nc1	kinase binding, competitor, MIB/MS competition, measured: PBS2	Candida albicans cell lysate	100 nM	reference: DMSO	log2 fold change	1.24

Structure (SMILES)	test	test system	conditions	scale	quantity	result
CN[C@@H]1COc2c(S(=O)(=O)NC(=O)Nc3c4c(cc5c3CCC5)CCC4)cnn2C1	measured: IL-18	human participants, whole blood ex vivo	900 mg twice daily, multiple doses, 145 h, IL-18, circulating, adjusted for, together with: LPS/ATP	reference: baseline	inhibition	102%
O=S(=O)(NCCNC/C=C/c1ccc(Br)cc1)c1cccc2cnccc12	–	mouse zygotes	20 µM, 24 h post-hCG	–	embryos reaching 8-cell	0%
OC(CCN1CCCCC1)(c1ccccc1)C1CC2C=CC1C2 (centres unmarked)	resting-state EEG	healthy elderly humans	oral, 4 mg, eyes open, LS mean	–	EEG power, alpha, Fz-Cz	4 µV²
Cc1ccc(NC(=O)c2ccnc(C(F)(F)F)c2)cc1-c1cc(OCCO)nc(N2CCOCC2)c1	–	MAPK-altered advanced solid tumour patients	dose not given, single-agent dose escalation	–	partial response	2.3%
Oc1cc2c(cc1O)C(CCc1ccccc1)NCC2 (centres unmarked)	ferrozine	cell-free	100 µM, DMSO solvent	–	Fe2+ chelation	90.3 ± 0.95%
C[C@@H]1CCC[C@H](n2cnc(-c3cc(Cl)ccc3-n3cc(Cl)nn3)cc2=O)c2cc(ccn2)-c2c(cnn2C(F)F)NC1=O	–	rat plasma	IC2× aPTT, Actin FS reagent	–	concentration for aPTT prolongation	> 40 µM
O=C(/C=C/c1ccc(O)c(O)c1/C=C/c1ccc(O)c(O)c1)O[C@H](Cc1ccc(O)c(O)c1)C(=O)O	–	isolated myocardial tissue	1 µM	–	LVSP	55.3 mmHg
Cc1n[nH]c2ccc(-c3cc(OC[C@@H](N)Cc4ccccc4)cnc3-c3ccoc3)cc12	kinase binding, competitor, MIB/MS competition, measured: YPK1	Candida albicans cell lysate	10 µM	reference: DMSO	log2 fold change	-1.48
Cn1cc(Nc2nccc(-c3ccc4c(c3)CN(C3COC3)CC[C@H]4NC(=O)c3cn(C(C)(C)C)nn3)n2)cn1	measured: Dermatan Sulfate Degradation	splenic B cells, Mus musculus	30 mg/kg, together with: IgD activation	reference: vehicle, direction not given	pathway activation z-score	1.34
Cc1ccc(C(=O)OCc2ccc([C@@H](CN)C(=O)Nc3ccc4cnccc4c3)cc2)c(C)c1	–	normotensive Macaca cyclopis, right eye	0.02 %, pre-dose	–	intraocular pressure	20 mmHg
Cn1cc([C@H]2C[C@H]3CSC(N)=N[C@@]3(c3ccc(F)cc3F)CO2)cn1	measured: Aβx-40	wild-type mouse, brain	subcutaneous, 50 mg/kg, 18 h	–	brain Aβ40 level	2.63 ng/g
CC[C@@H]1[C@H](F)C(=O)N[C@@H]1COc1nccc2cc(C(N)=O)c(OC)cc12	ATP-site probe binding, ActivX profiling, measured: ROCK1, ROCK2	THP-1 cell lysate	0.2 mM, Lys2 site	–	inhibition	-10.6%
CN(C)C(=O)Oc1cccc([N+](C)(C)C)c1	neuromuscular block reversal	rat	dose not given, 22 (unit not given), together with: cisatracurium	reference: T1 twitch	train-of-four ratio	98.5
Cc1cc(Nc2cc3ncccc3c(N[C@@H]3C[C@H]4CC[C@@H](C3)N4CCC#N)n2)n[nH]1	–	moderate-severe ulcerative colitis patients	20 mg, day 28, unit not given	reference: baseline	change in partial Mayo	-0.6
C=CCn1c(=O)c2cnc(Nc3ccc(N4CCN(C)CC4)cc3)nc2n1-c1ccc2c(n1)[C@@](O)(CC)CC2	–	LNCaP xenograft, BALB/c nude mice	oral, 80 mg/kg once daily x 21, day 22	reference: vehicle	tumour growth inhibition	56.1%
COc1cc2cc(-c3ccc(CC(=O)Nc4cc(C(C)(C)C(F)(F)F)no4)cn3)cnc2cc1OC	–	human RET-altered advanced solid tumours	75 mg, phase I other tumours, RECIST 1.1	–	stable disease as best response	30%
O=C(OC(C(F)(F)F)C(F)(F)F)N1CCN(Cc2cccc(Oc3ccccc3)c2)CC1	PET blocking study	rhesus monkey, brain FCX	0.01 mg/kg, compound pretreatment, together with: [18F]T-401 tracer	–	k3	0.075 min⁻¹
CSCCNc1nc(SCCC(F)(F)F)nc2c1ncn2[C@@H]1O[C@H](COP(=O)(O)OP(=O)(O)C(Cl)(Cl)P(=O)(O)O)[C@@H](O)[C@H]1O	ADP-induced platelet aggregation, LTA, >46% aggregation	human patients, platelet-rich plasma	dose not given, 1 h, together with: ADP 5 µM	–	patients with high reactivity	55%
N#Cc1ccc2c(c1)[C@H]1CCCN(C(=O)c3ccc4[nH]cnc4c3)[C@H]1C2	measured: diastolic blood pressure	human	240 mg once daily, day 28, adjusted mean	reference: placebo	change from baseline	1.2 mmHg
C[C@H](Oc1ccc(Br)cc1-c1ccon1)C(=O)O	maximum voluntary grip contraction, handgrip dynamometry	healthy human	100 mg, SAD	–	difference from placebo	-2.03 kg

Repeated from above:
Structure (SMILES)	test	test system	conditions	scale	quantity	result
COc1cc2cc(-c3ccc(CC(=O)Nc4cc(C(C)(C)C(F)(F)F)no4)cn3)cnc2cc1OC	–	human RET-altered advanced solid tumours	75 mg, phase I other tumours, RECIST 1.1	–	stable disease as best response	30%
O=C(OC(C(F)(F)F)C(F)(F)F)N1CCN(Cc2cccc(Oc3ccccc3)c2)CC1	PET blocking study	rhesus monkey, brain FCX	0.01 mg/kg, compound pretreatment, together with: [18F]T-401 tracer	–	k3	0.075 min⁻¹
CSCCNc1nc(SCCC(F)(F)F)nc2c1ncn2[C@@H]1O[C@H](COP(=O)(O)OP(=O)(O)C(Cl)(Cl)P(=O)(O)O)[C@@H](O)[C@H]1O	ADP-induced platelet aggregation, LTA, >46% aggregation	human patients, platelet-rich plasma	dose not given, 1 h, together with: ADP 5 µM	–	patients with high reactivity	55%
N#Cc1ccc2c(c1)[C@H]1CCCN(C(=O)c3ccc4[nH]cnc4c3)[C@H]1C2	measured: diastolic blood pressure	human	240 mg once daily, day 28, adjusted mean	reference: placebo	change from baseline	1.2 mmHg
C[C@H](Oc1ccc(Br)cc1-c1ccon1)C(=O)O	maximum voluntary grip contraction, handgrip dynamometry	healthy human	100 mg, SAD	–	difference from placebo	-2.03 kg
